Results from different studies.
Each numbered part is a random draw from the data of one study; scales do not carry over between parts. Substitutions count along the parent as printed.

Series 1 — method: competition protein-binding microarray; form: double-stranded DNA, one strand shown; matrix: in vitro; concentration: 2 µM; together with: Cbf1 competitor, 0.05 µM; direction: higher = stronger binding; all sequences stand within: … GTCTTGATTCGCTTGACGCTGCTG
Target: Phosphate system positive regulatory protein PHO4, full length, GST-tagged (PHO4, Saccharomyces cerevisiae, UniProt P07270, residues 1-312)
Setting: whole 60-bp probe, lowest competitor level
Construct (chain): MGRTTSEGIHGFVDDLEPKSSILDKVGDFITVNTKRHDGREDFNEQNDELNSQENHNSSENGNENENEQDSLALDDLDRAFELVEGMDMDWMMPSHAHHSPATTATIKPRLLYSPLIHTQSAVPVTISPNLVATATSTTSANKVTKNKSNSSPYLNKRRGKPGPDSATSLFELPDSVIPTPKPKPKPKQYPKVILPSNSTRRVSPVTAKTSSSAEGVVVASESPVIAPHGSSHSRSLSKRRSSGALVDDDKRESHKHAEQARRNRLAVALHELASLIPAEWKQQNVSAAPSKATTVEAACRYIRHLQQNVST
| Sequence | fluorescence intensity |
| --- | --- |
| CTAACGAAGGTTTTTCACGTGAGCTACAAGCCAAGT | 9930 a.u. |
| GATGTTCTTTTTCGCCACATGCTTCATGACGATTTA | 10100 a.u. |
| CCTGGCCAAGGGCTTCACGTGTAATCTCATTTAATT | 12800 a.u. |
| CTTTCCCGATCTTGATCCGTGGGTGTAGCACATTTG | 5610 a.u. |
| GTCTTGTCTCATTGCATTGTGGGTGTCCCCACTTCA | 5120 a.u. |
| GCCTGGGTGGCGGGCTATGTGGTGAATGCAGAGGGT | 5720 a.u. |
| GTCTTGTCTCATTGTAGCGTGGGTGTCCCCACTTCA | 7120 a.u. |
| GAAGGTGGTCCAACACACGTGATGGACCTAAACTCG | 13900 a.u. |
| AAAGCGGTAATTTTTCACGTGAACTCACATATCTAT | 9440 a.u. |
| TGTAGAGCAAACCGTAGTGGTAATAGTGGTTGTTGA | 3730 a.u. |
| AAATTACTAAGTTGGGTCGTGGGTGACGCCGTATGA | 8880 a.u. |
| TCCCAAGACCATACCCACGATGAAATTAAAGACACT | 7950 a.u. |
| GCCAGAGAGTTATTTCACGTGCTTTGTTCGGCCCGC | 13500 a.u. |
| CTTCTGTAAATTTTTCACGTGAACTGACGCGCCCCG | 8020 a.u. |
| CTTCTGTAAATTTGGATGGTGGGTGGACGCGCCCCG | 4420 a.u. |
| CATCAGCATGGTACCCTCGTGTTTTCTGCAGCGAGA | 11700 a.u. |
| CGTTGGGCTGAAGACGACATGATAATTAAGAGAGCC | 3460 a.u. |
| CATACCCAACCTTGACTGGTGGGTGAAGATATTTGT | 3640 a.u. |
| GCATATGCCTTCTGGCACGTGTCCATCTGCATACTA | 19300 a.u. |
| ATACTTTTATCGGCCCATGTGTGCCTAGTCAGCTCG | 7900 a.u. |
| AAATTACTAAGTTGGGCAGTGGGTGACGCCGTATGA | 3660 a.u. |
| CAGCATTAGCTAAAACACGTTAATATGGTGGAGTCA | 6270 a.u. |
| GTCTTGTCTCATTGTTACGTGGGTGTCCCCACTTCA | 6500 a.u. |
| CGGGGTTAAGTTTGTCACAGTACTTGCTTGCAGCAG | 3680 a.u. |
| GTCTTGTCTCATTGTACTGTGGGTGTCCCCACTTCA | 4680 a.u. |

Series 2 — target: OGT, full length, His-tagged (human); method: phage display, sequencing; matrix: in vitro; concentration: 1 µg OGT; reference: input library; direction: higher = stronger binding; starting sequence: peptide; NSEYMPQYQIIFAHQ
Setting: single substitutions, 15-mer displayed peptide, unchanged parent 16.7
| Variant | fold enrichment [fold] |
| --- | --- |
| NSEYMPWYQIIFAHQ [Q7W] | 9.83 |
| NSEYMAQYQIIFAHQ [P6A] | 0.877 |
| NSEYMPQFQIIFAHQ [Y8F] | 2.8 |
| NSEWMPQYQIIFAHQ [Y4W] | 11.3 |
| NSEYMPQYQINFAHQ [I11N] | 11.6 |
| NSEYMPQYAIIFAHQ [Q9A] | 5.2 |
| NSEYMPQHQIIFAHQ [Y8H] | 0.615 |
| NSEYMPHYQIIFAHQ [Q7H] | 10.9 |
| NSEYMPQYQTIFAHQ [I10T] | 0.467 |
| NSEYMPQYQIEFAHQ [I11E] | 28.3 |
| NSEYMPQYQPIFAHQ [I10P] | 0.553 |
| NSEYMPQYQIIFNHQ [A13N] | 32.9 |
| NSEYMPQTQIIFAHQ [Y8T] | 0.371 |
| NSEYMRQYQIIFAHQ [P6R] | 1.77 |
| NSEYMPQYQIWFAHQ [I11W] | 13.3 |
| NSEYMPQYQIIFAHF [Q15F] | 7.88 |
| NSEYMPQYQNIFAHQ [I10N] | 0.297 |
| NSEYMPQYQIIFKHQ [A13K] | 25.6 |

Series 3 — method: RNA Bind-n-Seq; form: RNA; matrix: in vitro; concentration: 1 µM; setting: whole 134-nt RNA, ends assumed; together with: 150 mM KCl; reference: input library; direction: higher = stronger binding
Target: Ras GTPase-activating protein-binding protein 1, RRM domain (G3BP1, Homo sapiens, UniProt Q13283)
UniProt Q13283, sequence (whole entry, looked up): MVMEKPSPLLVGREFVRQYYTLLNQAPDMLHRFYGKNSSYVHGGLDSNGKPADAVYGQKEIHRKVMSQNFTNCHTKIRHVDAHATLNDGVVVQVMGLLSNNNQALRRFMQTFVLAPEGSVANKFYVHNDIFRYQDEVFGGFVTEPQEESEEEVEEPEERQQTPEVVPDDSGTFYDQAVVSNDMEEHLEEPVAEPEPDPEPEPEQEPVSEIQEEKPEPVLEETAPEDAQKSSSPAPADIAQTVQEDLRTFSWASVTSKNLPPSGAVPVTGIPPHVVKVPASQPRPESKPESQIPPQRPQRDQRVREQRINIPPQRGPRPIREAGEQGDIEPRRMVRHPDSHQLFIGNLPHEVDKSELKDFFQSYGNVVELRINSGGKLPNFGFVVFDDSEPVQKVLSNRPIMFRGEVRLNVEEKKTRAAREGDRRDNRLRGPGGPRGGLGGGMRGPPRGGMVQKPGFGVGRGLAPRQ
All sequences stand within: GGGAGUUCUACAGUCCGACGAUC … UGGAAUUCUCGGGUGUCAAGG
| Sequence | log2 enrichment |
| --- | --- |
| AGUCCUGUGCUACACAUCGUAUGUACCGAAUCGGGAGGGUUUUUGGGAAAAAAAGGGAAAGUAUUAUGUUACGCCGUUCGGAUCUGCACU | 0.42 |
| AUUUUUUGUAUCAAGUCCCUGAAUGGAAGUAUGACGUUGGGUCCCUCUGAAGUUUAAUUCUGAGUUCUCAUUAAAAGAAAUUUGCUUUCA | -0.479 |
| UUGUGGAAAACCCACAUGCUCCUCAGAAAGAUGAUGCCCUGGUGAUCACACACUACAACCGGACCCGACAGCAGGAAGAGAUGCUGGGGC | -0.0214 |
| GUCCUGUGCUACACAUCGUAUGUACCGAAUCGGGAAAAAGGGGAAAAAGGAAAAAGGGAAAGUAUUAUGUUACGCCGUUCGGAUCUGCAC | 0.0745 |
| GCAGGAAGUAAAAACAAAUGGAAAUGCUUCGGAUAGUGGCAGUGGUGGGGGUUGCUAAGGAAAGGGUGGGAUGGGAGUGGGUAAAGAGUU | 1.15 |
| UCAAGUCCUGUGCUACACAUCGUAUGUACCGAAUCGGUUUUUGGUUUUUGGAGGAAAGUAUUAUGUUACGCCGUUCGGAUCUGCACUUCC | -0.127 |
| AAGUCCUGUGCUACACAUCGUAUGUACCGAAUCGGAAAAAGGUUUGGAAAAAAAGGAAAGUAUUAUGUUACGCCGUUCGGAUCUGCACUU | -0.193 |
| UAACUUUAGAGGAGGAUCUGAUGGAUAUGGCAGUGGACGUGGAUUUGGGGAUGGCUAUAAUGGGUAUGCAGGAGGACCUGGAGGUGGCAA | -0.458 |
| AGUCCUGUGCUACACAUCGUAUGUACCGAAUCGGGGUUUUUUUGGGGUGGGGAGGGGAAAGUAUUAUGUUACGCCGUUCGGAUCUGCACU | 0.738 |
| CACGGACAACACGCACCCACACAGACACAGAGGGAAGGGGUUGGGAUGGGGACAGGGUGCACAGCAGGGCGGGGUAGGACCCCAGCCCCU | -0.0565 |
| AGUCCUGUGCUACACAUCGUAUGUACCGAAUCGGGUUUUUGGGAGGGUUUUUUUGGGAAAGUAUUAUGUUACGCCGUUCGGAUCUGCACU | 0.263 |
| GCAGGAAGUAAAAACAAAUGGAAAUGCUGCGGAUAGUGGCAGGGGUGGGGGUUGCUAAGGAAAGGGUGGGAUGGGAGUGGGUAAAGAGUU | 0.983 |
| UCCUGUGCUACACAUCGUAUGUACCGAAUCGGGGAAAAAAAGGGGAGGGGUUUUUGGGGAAAGUAUUAUGUUACGCCGUUCGGAUCUGCA | 0.671 |
| UGCCUACGUAAUUUUUUAUCUUGAAAUAUUCAAAAUUAGGAGCCAGAUGACCAAGAUGCUCCAGAUGAACAUGAGUCGCCUCCACCUGAA | -0.588 |

Series 4 — method: protein binding microarray; form: double-stranded DNA, one strand shown; matrix: in vitro; concentration: not given; reference: not given; direction: higher = stronger binding
Target: Histone acetyltransferase KAT6A, winged helix 2, GST fusion (KAT6A, Homo sapiens, UniProt Q92794, residues 85-181)
Setting: 8-mer, flanks averaged, mean of 2 arrays, mostly near background
Residues (chain): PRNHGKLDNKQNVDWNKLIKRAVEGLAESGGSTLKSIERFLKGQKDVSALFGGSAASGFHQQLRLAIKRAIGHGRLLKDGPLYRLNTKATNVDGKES
| Sequence | E-score |
| --- | --- |
| CACGAGAA | 0.016 |
| AATTTTAT | 0.248 |
| AGGATTTC | 0.105 |
| AGAACTCA | 0.00902 |
| GCCACGAA | 0.064 |
| ACCCAACA | -0.142 |
| TACTGTGA | -0.0962 |
| CGGACAAG | -0.0121 |
| ATCGAACG | -0.127 |
| AAGTACGG | -0.0754 |
| GCTTGGGA | 0.0683 |
| CCCTAGGC | -0.0238 |
| CGCAACCG | 0.305 |
| CGGCCAAA | 0.201 |
| TATTGCCA | -0.0997 |
| GAAAAAAC | 0.124 |

Series 5 — method: aptamer microarray, sandwich; form: DNA with 2'F-ANA; matrix: in vitro; concentration: 200 nM; together with: Cy3 exosite-II aptamer, 400 nM; direction: higher = stronger binding; sequence: GGTTGGTGTGGTTGG
Target: Prothrombin, mature alpha-thrombin (F2, Homo sapiens, UniProt P00734)
Setting: whole 15-mer aptamer, many near background
| Modification | mean fluorescence intensity [a.u.] |
| --- | --- |
| 2'F-ANA at 1 5 6 10 11 12 13 | 51.5 |
| 2'F-ANA at 2 3 4 5 6 7 8 11 | 88.6 |
| 2'F-ANA at 2 3 6 7 8 9 10 11 13 15 | 303 |
| 2'F-ANA at 1 2 3 4 5 6 8 10 14 | 50.8 |
| 2'F-ANA at 1 2 3 4 5 6 7 8 9 11 12 14 15 | 54.2 |
| 2'F-ANA at 1 3 4 6 9 11 14 15 | 59.3 |
| 2'F-ANA at 1 3 5 6 7 8 9 12 13 | 90.7 |
| 2'F-ANA at 1 3 4 5 7 9 11 12 13 14 15 | 63 |
| 2'F-ANA at 5 6 8 9 10 11 13 14 | 57.6 |
| 2'F-ANA at 5 7 9 11 12 14 15 | 61.2 |
| 2'F-ANA at 1 2 5 7 11 15 | 54 |
| 2'F-ANA at 2 4 5 6 9 11 13 | 95.7 |
| 2'F-ANA at 1 2 4 5 6 12 13 14 | 82 |
| 2'F-ANA at 1 3 5 7 8 9 10 11 13 14 | 53.4 |
| 2'F-ANA at 1 2 3 6 8 9 11 | 203 |
| 2'F-ANA at 1 4 6 8 12 13 15 | 217 |
| 2'F-ANA at 4 5 6 7 9 10 11 15 | 47.7 |
| 2'F-ANA at 6 7 12 | 842 |
| 2'F-ANA at 1 3 4 5 6 7 11 13 14 | 51.9 |
| 2'F-ANA at 1 2 3 6 7 12 15 | 387 |
| 2'F-ANA at 2 6 7 10 11 13 14 | 72.9 |
| 2'F-ANA at 1 2 3 4 8 10 11 12 14 15 | 50 |
| 2'F-ANA at 1 5 7 11 12 14 | 43.8 |
| 2'F-ANA at 2 3 5 6 12 | 266 |
| 2'F-ANA at 1 2 4 5 7 10 14 | 51.8 |

For quick reference, copied from above (series 1):
| Sequence | fluorescence intensity |
| --- | --- |
| GAAGGTGGTCCAACACACGTGATGGACCTAAACTCG | 13900 a.u. |
| AAAGCGGTAATTTTTCACGTGAACTCACATATCTAT | 9440 a.u. |
| CTTTCCCGATCTTGATCCGTGGGTGTAGCACATTTG | 5610 a.u. |
| CAGCATTAGCTAAAACACGTTAATATGGTGGAGTCA | 6270 a.u. |
| GATGTTCTTTTTCGCCACATGCTTCATGACGATTTA | 10100 a.u. |
| GCATATGCCTTCTGGCACGTGTCCATCTGCATACTA | 19300 a.u. |
| TGTAGAGCAAACCGTAGTGGTAATAGTGGTTGTTGA | 3730 a.u. |
| CGGGGTTAAGTTTGTCACAGTACTTGCTTGCAGCAG | 3680 a.u. |
| GTCTTGTCTCATTGTACTGTGGGTGTCCCCACTTCA | 4680 a.u. |
| AAATTACTAAGTTGGGTCGTGGGTGACGCCGTATGA | 8880 a.u. |
| CTTCTGTAAATTTGGATGGTGGGTGGACGCGCCCCG | 4420 a.u. |
| CATACCCAACCTTGACTGGTGGGTGAAGATATTTGT | 3640 a.u. |
| GTCTTGTCTCATTGTAGCGTGGGTGTCCCCACTTCA | 7120 a.u. |
| GCCTGGGTGGCGGGCTATGTGGTGAATGCAGAGGGT | 5720 a.u. |
| AAATTACTAAGTTGGGCAGTGGGTGACGCCGTATGA | 3660 a.u. |
| CTAACGAAGGTTTTTCACGTGAGCTACAAGCCAAGT | 9930 a.u. |
